Results of several laboratories.
Effect on: DPPH scavenging

| SMILES | test | conditions | IC50 |
| --- | --- | --- | --- |
| Fc1ccc2[nH]c(-c3ccc(OCc4ccccc4)cc3)nc2c1 | absorbance |  | 1.62 µM |
| Clc1ccc(Nc2nc(Nc3ccc(Cl)cc3)c3c(-c4ccc5ccccc5n4)cc(-c4ccccc4)nc3n2)cc1 | absorbance | 30 min | 155 µM |
| CC1(C)C2CC[C@@]1(C)C(=O)/C2=C/c1ccco1 |  | 15 min | 452 µM |
| Clc1ccc2[nH]c(-c3ccccc3OCc3ccccc3)nc2c1 | absorbance |  | 2.36 µM |
| O=C1O[C@H]([C@@H](O)CO)C(O)=C1O | absorbance | 30 min | 38.5 µM |
| O=C1O[C@H]([C@@H](O)CO)C(O)=C1O | absorbance |  | 2.88 µg/mL |
| CSc1nc2nc(-c3ccccc3)cc(-c3ccc4ccccc4n3)c2c(=O)[nH]1 | absorbance | 30 min | 186 µM |
| O=C1O[C@H]([C@@H](O)CO)C(O)=C1O |  |  | 4.08 µg/mL |
| O=C1O[C@H]([C@@H](O)CO)C(O)=C1O |  | 15 min | 59.6 µM |
| O=C1CCC(=O)C2(CCCCC2)N1 |  |  | 94 µg/mL |
| Cc1ccc(C(=O)N(C(=O)c2ccc(C)cc2)C(=S)N2N=C(c3ccccc3)CC2c2ccc(F)cc2)cc1 (centres unmarked) | absorbance |  | 104 µM |
| O=C1NC2(CCCCC2)c2nc3c(c(-c4ccccc4)c21)CCCC3 |  |  | 33 µg/mL |
| c1ccc(Nc2nc(Nc3ccccc3)c3c(-c4ccc5ccccc5n4)cc(-c4ccccc4)nc3n2)cc1 | absorbance | 30 min | 162 µM |
| CC1(C)C2CC[C@]1(C)C(=O)/C2=C/c1ccoc1 |  | 15 min | 472 µM |
| O=c1[nH]c(N2CCOCC2)nc2nc(-c3ccccc3)cc(-c3ccc4ccccc4n3)c12 | absorbance | 30 min | 174 µM |
| CC1(C)C2CC[C@]1(C)C(=O)/C2=C/c1cccs1 |  | 15 min | 586 µM |
| Cc1ccc(C(=O)N(C(=O)c2ccc(C)cc2)C(=S)N2N=C(c3ccc(F)cc3)CC2c2ccc(F)cc2)cc1 (centres unmarked) | absorbance |  | 105 µM |
| O=C(O)c1ccccc1Nc1nc2nc(-c3ccccc3)cc(-c3ccc4ccccc4n3)c2c(=O)[nH]1 | absorbance | 30 min | 177 µM |
| Cc1ccc(C(=O)N(C(=O)c2ccc(C)cc2)C(=S)N2N=C(c3ccccc3)CC2c2ccc(C)cc2)cc1 (centres unmarked) | absorbance |  | 116 µM |
| O=c1[nH]c(N2CCNCC2)nc2nc(-c3ccccc3)cc(-c3ccc4ccccc4n3)c12 | absorbance | 30 min | 172 µM |
| CC1(C)C2CC[C@]1(C)C(=O)/C2=C/c1ccsc1 |  | 15 min | 432 µM |
| O=C1O[C@H]([C@@H](O)CO)C(O)=C1O |  | 30 min | 124 µM |
| CC1(C)C2CC[C@]1(C)C(=O)/C2=C/c1cc2ccccc2o1 |  | 15 min | 429 µM |
| Cc1ccc(C(=O)N(C(=O)c2ccc(C)cc2)C(=S)N2N=C(c3ccc(C)cc3)CC2c2ccc(Cl)cc2)cc1 (centres unmarked) | absorbance |  | 105 µM |
| CSc1nc(Cl)c2c(-c3ccc4ccccc4n3)cc(-c3ccccc3)nc2n1 | absorbance | 30 min | 181 µM |
| Fc1ccc2[nH]c(-c3cccc(OCc4ccccc4)c3)nc2c1 | absorbance |  | 1.58 µM |

Excerpt of the above:
| SMILES | test | conditions | IC50 |
| --- | --- | --- | --- |
| CSc1nc2nc(-c3ccccc3)cc(-c3ccc4ccccc4n3)c2c(=O)[nH]1 | absorbance | 30 min | 186 µM |
| CC1(C)C2CC[C@@]1(C)C(=O)/C2=C/c1ccco1 |  | 15 min | 452 µM |
| Cc1ccc(C(=O)N(C(=O)c2ccc(C)cc2)C(=S)N2N=C(c3ccccc3)CC2c2ccc(C)cc2)cc1 (centres unmarked) | absorbance |  | 116 µM |
| O=c1[nH]c(N2CCOCC2)nc2nc(-c3ccccc3)cc(-c3ccc4ccccc4n3)c12 | absorbance | 30 min | 174 µM |
